Measured values from different studies.
Each line is one published result; not all experiments were run side by side. ± marks the error that the study gave.
hly: hly (Listeria monocytogenes, UniProt P13128)
cyp121: Mycocyclosin synthase (cyp121, Mycobacterium tuberculosis, UniProt P9WPP7)

Protein sequences, listed by entry. Tags and fused reporters are not part of them. Residues count along the entry.
UniProt P9WPP7, whole entry: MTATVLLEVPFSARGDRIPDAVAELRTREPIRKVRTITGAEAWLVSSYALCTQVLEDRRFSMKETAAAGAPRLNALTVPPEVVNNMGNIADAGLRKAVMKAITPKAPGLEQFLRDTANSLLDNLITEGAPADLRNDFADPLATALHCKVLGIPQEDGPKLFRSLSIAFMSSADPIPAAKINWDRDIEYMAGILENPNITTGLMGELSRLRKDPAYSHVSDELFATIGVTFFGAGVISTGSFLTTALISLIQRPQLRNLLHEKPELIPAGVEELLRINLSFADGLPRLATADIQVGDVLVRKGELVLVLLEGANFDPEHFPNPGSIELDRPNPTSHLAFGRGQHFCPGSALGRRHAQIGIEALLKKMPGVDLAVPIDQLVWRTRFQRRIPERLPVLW
UniProt P35367, whole entry: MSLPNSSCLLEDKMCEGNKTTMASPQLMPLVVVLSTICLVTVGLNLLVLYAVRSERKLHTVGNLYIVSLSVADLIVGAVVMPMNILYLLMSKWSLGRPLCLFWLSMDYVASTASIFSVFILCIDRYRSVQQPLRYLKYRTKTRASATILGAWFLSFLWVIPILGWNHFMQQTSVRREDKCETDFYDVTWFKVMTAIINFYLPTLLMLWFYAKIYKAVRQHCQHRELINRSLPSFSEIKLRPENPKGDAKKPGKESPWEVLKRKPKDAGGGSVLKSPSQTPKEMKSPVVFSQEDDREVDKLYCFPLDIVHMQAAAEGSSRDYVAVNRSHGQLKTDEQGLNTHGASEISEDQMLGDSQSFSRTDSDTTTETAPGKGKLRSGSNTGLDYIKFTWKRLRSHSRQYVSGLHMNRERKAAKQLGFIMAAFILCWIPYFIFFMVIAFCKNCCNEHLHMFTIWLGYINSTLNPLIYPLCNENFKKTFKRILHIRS
UniProt Q8N3R9, 256-336 F318W limits assumed: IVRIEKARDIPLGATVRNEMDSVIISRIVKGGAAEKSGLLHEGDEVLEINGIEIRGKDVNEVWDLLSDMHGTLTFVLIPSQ
UniProt P00433, 31-338 limits assumed: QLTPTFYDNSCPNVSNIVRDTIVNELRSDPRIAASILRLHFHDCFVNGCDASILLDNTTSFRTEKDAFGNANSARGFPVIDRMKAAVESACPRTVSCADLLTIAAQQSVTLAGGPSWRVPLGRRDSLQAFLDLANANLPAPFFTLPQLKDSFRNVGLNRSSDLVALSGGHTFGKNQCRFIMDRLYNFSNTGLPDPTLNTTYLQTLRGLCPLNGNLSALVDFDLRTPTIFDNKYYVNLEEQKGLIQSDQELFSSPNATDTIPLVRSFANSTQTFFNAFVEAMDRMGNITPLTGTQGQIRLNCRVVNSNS
UniProt Q8WSF8, 18-236 limits assumed: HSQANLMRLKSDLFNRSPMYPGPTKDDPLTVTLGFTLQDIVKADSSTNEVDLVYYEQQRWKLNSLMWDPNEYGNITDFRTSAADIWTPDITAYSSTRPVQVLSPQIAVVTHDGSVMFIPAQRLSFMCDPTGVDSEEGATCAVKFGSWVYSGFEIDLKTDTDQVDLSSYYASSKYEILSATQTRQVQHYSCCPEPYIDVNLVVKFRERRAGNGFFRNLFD
UniProt P71716, whole entry: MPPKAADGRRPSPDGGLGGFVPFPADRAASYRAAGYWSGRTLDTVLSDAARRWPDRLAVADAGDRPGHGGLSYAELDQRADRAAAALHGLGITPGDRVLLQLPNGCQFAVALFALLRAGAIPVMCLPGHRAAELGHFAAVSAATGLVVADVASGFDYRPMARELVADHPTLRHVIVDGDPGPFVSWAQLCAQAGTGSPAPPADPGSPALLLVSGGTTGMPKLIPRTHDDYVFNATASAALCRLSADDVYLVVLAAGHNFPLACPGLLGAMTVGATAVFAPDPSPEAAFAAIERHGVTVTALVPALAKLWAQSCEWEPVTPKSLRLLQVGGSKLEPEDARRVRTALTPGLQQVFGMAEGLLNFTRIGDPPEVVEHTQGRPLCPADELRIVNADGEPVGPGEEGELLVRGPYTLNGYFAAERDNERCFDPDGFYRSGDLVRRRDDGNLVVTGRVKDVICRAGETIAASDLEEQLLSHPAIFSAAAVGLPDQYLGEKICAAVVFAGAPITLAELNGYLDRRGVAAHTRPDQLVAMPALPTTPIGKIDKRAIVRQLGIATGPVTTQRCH
UniProt P00533, whole entry, looked up: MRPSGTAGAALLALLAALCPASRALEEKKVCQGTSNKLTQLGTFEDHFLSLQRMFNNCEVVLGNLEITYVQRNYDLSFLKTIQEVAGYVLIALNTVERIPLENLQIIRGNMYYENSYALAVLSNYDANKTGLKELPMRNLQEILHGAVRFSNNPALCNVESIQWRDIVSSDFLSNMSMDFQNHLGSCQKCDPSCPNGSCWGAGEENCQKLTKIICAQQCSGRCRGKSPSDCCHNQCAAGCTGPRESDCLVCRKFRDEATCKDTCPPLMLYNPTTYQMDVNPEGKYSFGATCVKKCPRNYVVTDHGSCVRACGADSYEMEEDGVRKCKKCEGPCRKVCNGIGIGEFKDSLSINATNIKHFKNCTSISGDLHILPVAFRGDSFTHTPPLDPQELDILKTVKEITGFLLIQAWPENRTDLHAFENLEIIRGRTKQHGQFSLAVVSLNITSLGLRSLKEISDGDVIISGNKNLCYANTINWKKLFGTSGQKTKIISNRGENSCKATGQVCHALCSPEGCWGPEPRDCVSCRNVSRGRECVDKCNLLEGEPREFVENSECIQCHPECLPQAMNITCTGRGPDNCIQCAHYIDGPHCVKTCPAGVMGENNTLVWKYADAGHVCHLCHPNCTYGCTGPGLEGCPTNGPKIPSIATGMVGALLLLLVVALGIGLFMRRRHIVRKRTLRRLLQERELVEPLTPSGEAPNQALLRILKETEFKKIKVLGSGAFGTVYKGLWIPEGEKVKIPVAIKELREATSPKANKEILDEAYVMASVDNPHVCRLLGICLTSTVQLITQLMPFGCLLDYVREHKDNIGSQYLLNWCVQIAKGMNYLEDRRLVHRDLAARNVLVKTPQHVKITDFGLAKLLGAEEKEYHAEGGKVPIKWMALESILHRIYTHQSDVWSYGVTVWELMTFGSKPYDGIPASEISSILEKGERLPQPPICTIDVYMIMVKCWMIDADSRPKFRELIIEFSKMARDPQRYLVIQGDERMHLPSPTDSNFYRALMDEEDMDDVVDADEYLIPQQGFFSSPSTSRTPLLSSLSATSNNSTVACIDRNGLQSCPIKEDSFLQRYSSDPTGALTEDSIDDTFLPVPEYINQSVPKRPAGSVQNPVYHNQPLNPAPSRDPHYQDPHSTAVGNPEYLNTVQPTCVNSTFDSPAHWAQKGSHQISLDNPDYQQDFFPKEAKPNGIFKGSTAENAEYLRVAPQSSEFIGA

NCCNCCSc1ccccc1 — pKa (spectrophotometry; pH 6.0): 6
COc1ccc(CN[C@@H]2CO[C@H](C(c3ccccc3)c3ccccc3)C[C@H]2O)cc1 — inhibition (HRH1 (Homo sapiens, UniProt P35367); radioligand binding; 10 µM, added: [3H]pyrilamine): -16.9%
CC(C)C[C@H](NC(=O)[C@H](CC(=O)O)NC(=O)[C@@H]1CCCN1C(=O)[C@@H](NC(=O)CNC(=O)[C@H](CCC(=O)O)NC(=O)[C@H](CO)NC(=O)[C@H](CO)NC(=O)[C@H](CC(N)=O)NS(=O)(=O)c1cccc2c(N(C)C)cccc12)C(C)C)C(=O)N[C@@H](CC(C)C)C(=O)N[C@H](C(=O)O)C(C)C — Kd (Protein PALS1, PDZ domain (PALS1, Homo sapiens, UniProt Q8N3R9, F318W); fluorescence titration; pH 7.2, 25 °C): 130000 ± 10000 nM
CC(=O)NC1C(O)CC(OC(CO)C(O)C2OC(OC(CO)C(O)C3OC(OC4C(O)C(CO)OC(OC5C(CO)OC(O)C(O)C5O)C4O)(C(=O)O)CC(O)C3NC(C)=O)(C(=O)O)CC(O)C2NC(C)=O)(C(=O)O)OC1C(O)C(O)CO (stereo not drawn) — Kd (hly; binding; pH 5.5): 9.4 nM
c1ccc(-c2ccc(Cn3ccnc3)s2)cc1 — Kd (cyp121; binding): 19600 ± 4400 nM
C=CC(=O)Nc1cc(-n2c(=O)ccc3cnc4ccc(-c5cn[nH]c5)cc4c32)ccc1C — GI50 (RV-1; cell growth; 72 h): > 10000 nM
Fc1ccc(-c2cc(Cn3ccnc3)c3ccccc3c2)cc1 — Kd (cyp121; binding): 1300 ± 270 nM
CC[C@H](C)[C@H](NC(=O)[C@H](Cc1ccccc1)NC(=O)[C@H](C)NC(=O)[C@H](CCCNC(=N)N)NC(=O)CNC(=O)CNC(=O)CNC(=O)CNC(=O)[C@H](CCSC)NC(=O)[C@H](Cc1ccc(O)cc1)NC(=O)[C@@H]1CCCN1C(=O)[C@@H](NC(=O)[C@H](C)NC(=O)[C@H](CO)NC(=O)[C@H](CO)NC(=O)[C@H](CC(C)C)NC(=O)[C@H](Cc1c[nH]c2ccccc12)NC(=O)[C@H](Cc1ccc(O)cc1)NC(=O)[C@H](Cc1c[nH]cn1)NC(=O)[C@H](CS)NC(=O)[C@H](CO)NC(=O)[C@H](Cc1ccc(O)cc1)NC(=O)[C@@H](N)CO)C(C)C)C(=O)N[C@@H](C)C(=O)N[C@@H](CO)C(=O)N[C@@H](CCCNC(=N)N)C(=O)N[C@@H](CCCNC(=N)N)C(=O)N[C@H](C(=O)N[C@@H](CCCNC(=N)N)C(=O)N[C@@H](CCCNC(=N)N)C(=O)N1CCC[C@H]1C(=O)O)[C@@H](C)CC — Kd (PRXC1A (Armoracia rusticana, UniProt P00433); peptide ELISA; synthetic peptide; 45 min, added: HRP from 200 nM): 30 nM
Cn1c(=O)cc(OCc2cn(C3C[C@H]4CC[C@@H](C3)[N+]4(C)C)nn2)c2ccccc21 (stereo partly drawn) — Kd (Soluble acetylcholine receptor (Aplysia californica, UniProt Q8WSF8); binding, scintillation proximity; added: [3H]epibatidine): 24 ± 6.8 nM
O=C(NS(=O)(=O)OC[C@H]1O[C@@H](n2cnc3c(NCc4ccccc4)ncnc32)[C@H](O)[C@@H]1O)c1ccccc1O — Kd (Salicyl-AMP ligase / salicyl-S-ArCP synthetase (Mycobacterium tuberculosis, UniProt P71716); binding): 136 ± 8 nM
NC[C@@H](NC[C@@H]1CCCN1C[C@@H](CO)NC[C@@H](NCCC1CC2CCC1C2)c1ccccc1)c1ccccc1 (stereo partly drawn) — potentiation of amikacin (Escherichia coli; bacterial growth; 24 µM, fold shift of IC90, added: amikacin): 2.1 fold
C[C@H](CS)C(=O)N[C@@H](Cc1c[nH]c2ccccc12)C(=O)O — MIC of meropenem (Escherichia coli; VIM-1 producing; 25 µM, added: meropenem): 16 µg/mL
CCC(c1ccc(-c2ccc(F)c(F)c2)c(F)c1)n1ccnc1 (stereo not drawn) — Kd (cyp121; binding): 4600 ± 700 nM
CC(=O)NC1C(OC2C(CO)OC(OC3C(CO)OC(O)C(O)C3O)C(O)C2O)OC(CO)C(O)C1OC1OC(CO)C(O)C(O)C1O (stereo not drawn) — Kd (hly; binding; pH 5.5): 567 nM
Cc1c([N+](=O)[O-])c(C)c([N+](=O)[O-])c(C(C)(C)C)c1[N+](=O)[O-] — Kd (EGFR (Homo sapiens, UniProt P00533); binding, surface plasmon resonance; extracellular domain): ~259000 nM

A few entries again:
NCCNCCSc1ccccc1 — pKa (spectrophotometry; pH 6.0): 6
